Published values of several laboratories.
Each line is one published result; not all experiments were run side by side. ± gives the spread as reported. ≈ marks a conversion by molar mass, not a printed value.

Molecule | test | test system | conditions | scale | quantity | result
C[C@@H]1CN(c2c(F)c(N)c3c(=O)c(C(=O)O)cn(C4CC4)c3c2F)C[C@H](C)N1 |  | male Hartley guinea pig, anaesthetized | intravenous infusion, 10 mg/kg, 10 min infusion | baseline: baseline | QTc change | 9.8 ± 1.7%
CC(=O)c1c(C)c2cnc(Nc3ccc(N4CCNCC4)cn3)nc2n(C2CCCC2)c1=O | shake flask | water | pH 6.5 |  | thermodynamic solubility | 34 µg/mL (≈ 76 µM)
CC(C)(Oc1ccc(CCNC(=O)c2ccc(Cl)cc2)cc1)C(=O)O | shake-flask | polysorbate 80 | 37 °C |  | thermodynamic solubility | 31.8 ± 1.2 mg/g
CCC[C@H](NC(=O)OCC1c2ccccc2-c2ccccc21)C(=O)O | reversed-phase HPLC |  |  | baseline: fluorinated over non-fluorinated analogue | retention time difference | 13.8 min
Cc1cc(-c2cc(OC(=O)c3ccccc3)ccc2Cl)cc2nnc(Nc3ccc(OCCN4CCCC4)cc3)nc12 |  | Dutch Belted rabbit, cornea | topical ocular, 40 µL drop of 0.6%, 2 h |  | tissue concentration | 38 nM
CC1(C)Oc2cc3oc(=O)ccc3cc2C[C@@H]1O |  | CD-1 mouse, male, lung | oral gavage, 80 mg/kg daily, 4 weeks |  | organ weight | 0.23 ± 0.02 g
acyl ghrelin (human) |  | wild-type mice, whole brain | intravenous, dose not given, 10 min, vascular space corrected |  | tissue/serum ratio | 6.45 µL/g
CC(C)[C@H](NC(=O)[C@@H]1CCCN1C(=O)[C@H](CCCNC(=N)N)NC(=O)[C@H](CS)NC(=O)[C@H](Cc1c[nH]c2ccccc12)NC(=O)[C@H](CCCNC(=N)N)NC(=O)[C@@H](Cc1ccccc1)NC(=O)[C@H](Cc1c[nH]cn1)NC(=O)[C@H](CCC(=O)O)NC(=O)[C@H](CS)NC(=O)[C@H](CS)NC(=O)[C@H](CCCCN)NC(=O)[C@@H]1CC(=O)N[C@@H](CCCNC(=N)N)C(=O)N[C@@H](C(C)C)C(=O)N[C@@H](CC(=O)O)C(=O)N[C@H](Cc2ccc(O)cc2)C(=O)N1)C(N)=O [technetium-99m labelled] |  | C57 mouse, female, B16/F1 melanoma, pancreas | intravenous, 2 h, added: NDP-MSH 10 µg co-injected |  | tissue uptake | 0.06 ± 0.03 %ID/g
COC(=O)C[C@](O)(CCCC(C)(C)O)C(=O)O[C@@H]1C(OC)=C[C@]23CCCN2CCc2cc4c(cc2[C@H]13)OCO4 |  | CD1 mouse, heart | oral, 1 mg/kg, 24 h, below quantification limit 1.00 ng/mL |  | tissue concentration | not detected
Ac-LRKLRKRLLRDWLKAFYDKVAEKLKEAF-NH2 (N-acetyl, C-amide) |  | peptide, APP/PS1ΔE9 mice, brain | intravenous, dose not given, 6 h, 14C-labeled |  | brain concentration | 163 ± 11 nM
CCCOc1ccc([C@H]2CNC(=O)N2c2ccc3[nH]cnc3c2)cc1 |  | non-elderly adults, fasted, plasma | oral, 20 mg twice daily, day 11, 2 to 12 h postdose, oral solution, geometric mean |  | effective half-life | 2.46 h
[2H]C([2H])([2H])Oc1cc2c(cc1OC([2H])([2H])[2H])C1CC(=O)C(CC(C)C)CN1CC2 (stereo not drawn) | refers to: deuterated α-HTBZ | healthy human volunteers, plasma | oral, 12 mg single dose, standard meal |  | dose-normalized AUC(0-t) | 16 ng·h/mL
O=C(O)c1cc(/N=N/c2ccc(S(=O)(=O)Nc3ccccn3)cc2)ccc1O | shake-flask | soybean oil | 37 °C |  | thermodynamic solubility | 0.01 mg/g
CN[C@H](CC(C)C)C(=O)N[C@H]1C(=O)N[C@@H](CC(N)=O)C(=O)N[C@H]2C(=O)N[C@H]3C(=O)N[C@H](C(=O)N[C@H](C(=O)O)c4cc(O)cc(O)c4-c4cc3ccc4O)[C@H](O)c3ccc(c(Cl)c3)Oc3cc2cc(c3O[C@@H]2O[C@H](CO)[C@@H](O)[C@H](O)[C@H]2O[C@H]2C[C@](C)(N)[C@H](O)[C@H](C)O2)Oc2ccc(cc2Cl)[C@H]1O | LC-MS/MS | New Zealand White rabbit, tibial medullary bone | intraosseous, 30 mg/kg, end of infusion |  | peak drug concentration | 1900 ng/µL
O=C(CCCN1CCC(O)(c2ccc(Cl)cc2)CC1)c1ccc(F)cc1 | shake-flask | polysorbate 80 | 37 °C |  | thermodynamic solubility | 7.06 ± 0.64 mg/g
N[C@@H](CC(=O)N1CCn2c(nnc2C(F)(F)F)C1)Cc1cc(F)c(F)cc1F |  | healthy Korean subjects, plasma | oral, 100 mg single dose, ABCB1 G2677T/A GA+GT |  | AUC(0-2 h) | 467 ± 194 ng·h/mL
CNCc1ccc(-c2[nH]c3cc(F)cc4c3c2CCNC4=O)cc1 |  | human patients, plasma | oral, 300 mg once daily, day 1, single dose, arithmetic mean |  | half-life | 15.2 h
CCCC[C@@H]1NC(=O)[C@@H](NC(=O)[C@H](CCC(=O)O)NC(=O)CNC(=O)CN2CCN(CC(=O)O)CCN(CC(=O)O)CCN(CC(=O)O)CC2)CCCCNC(=O)C[C@@H](C(N)=O)NC(=O)[C@H](C(C)C)NC(=O)[C@@H]2CCCN2C(=O)[C@H](CCCNC(=N)N)NC(=O)CNC(=O)[C@H](Cc2c[nH]c3ccccc23)NC(=O)[C@H](CCCNC(=N)N)NC(=O)[C@@H](Cc2ccccc2)NC(=O)[C@H](Cc2c[nH]cn2)NC(=O)[C@H](CCC(=O)O)NC1=O [indium-111 labelled] |  | normal C57 mice, skin | intravenous, 0.037 MBq, 24 h |  | tissue uptake | 0.06 ± 0.01 %ID/g

Excerpt of the above:
Molecule | test | test system | conditions | scale | quantity | result
COC(=O)C[C@](O)(CCCC(C)(C)O)C(=O)O[C@@H]1C(OC)=C[C@]23CCCN2CCc2cc4c(cc2[C@H]13)OCO4 |  | CD1 mouse, heart | oral, 1 mg/kg, 24 h, below quantification limit 1.00 ng/mL |  | tissue concentration | not detected
